Measured values collected from several papers.
Lines come from different studies, so protocols differ.
kasA: 3-oxoacyl-[acyl-carrier-protein] synthase 1 (kasA, Mycobacterium tuberculosis, UniProt P9WQD9)
UniProt P9WQD9, sequence (whole entry, looked up): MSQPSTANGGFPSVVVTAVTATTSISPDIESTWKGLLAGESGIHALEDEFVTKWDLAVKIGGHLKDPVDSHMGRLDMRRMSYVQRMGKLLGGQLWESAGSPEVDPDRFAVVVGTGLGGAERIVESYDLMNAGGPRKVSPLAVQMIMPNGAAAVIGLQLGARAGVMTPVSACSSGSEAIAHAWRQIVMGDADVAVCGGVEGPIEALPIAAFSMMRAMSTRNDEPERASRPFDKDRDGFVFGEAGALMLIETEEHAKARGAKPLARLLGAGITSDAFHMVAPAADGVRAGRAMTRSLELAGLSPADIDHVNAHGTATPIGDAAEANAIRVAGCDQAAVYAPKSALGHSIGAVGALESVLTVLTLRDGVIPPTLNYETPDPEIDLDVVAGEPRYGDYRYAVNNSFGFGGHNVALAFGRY
UniProt Q15722, sequence (whole entry, looked up): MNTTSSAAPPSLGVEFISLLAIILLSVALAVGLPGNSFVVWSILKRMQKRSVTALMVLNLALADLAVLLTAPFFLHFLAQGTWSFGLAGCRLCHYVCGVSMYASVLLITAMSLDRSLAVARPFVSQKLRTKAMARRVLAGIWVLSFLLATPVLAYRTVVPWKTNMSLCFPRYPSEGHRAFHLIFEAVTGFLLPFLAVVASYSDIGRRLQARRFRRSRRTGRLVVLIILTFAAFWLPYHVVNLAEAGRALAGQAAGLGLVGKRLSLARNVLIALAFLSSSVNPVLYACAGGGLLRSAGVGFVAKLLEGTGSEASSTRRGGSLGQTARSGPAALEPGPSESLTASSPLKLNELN
UniProt Q9H1R3, sequence (whole entry, looked up): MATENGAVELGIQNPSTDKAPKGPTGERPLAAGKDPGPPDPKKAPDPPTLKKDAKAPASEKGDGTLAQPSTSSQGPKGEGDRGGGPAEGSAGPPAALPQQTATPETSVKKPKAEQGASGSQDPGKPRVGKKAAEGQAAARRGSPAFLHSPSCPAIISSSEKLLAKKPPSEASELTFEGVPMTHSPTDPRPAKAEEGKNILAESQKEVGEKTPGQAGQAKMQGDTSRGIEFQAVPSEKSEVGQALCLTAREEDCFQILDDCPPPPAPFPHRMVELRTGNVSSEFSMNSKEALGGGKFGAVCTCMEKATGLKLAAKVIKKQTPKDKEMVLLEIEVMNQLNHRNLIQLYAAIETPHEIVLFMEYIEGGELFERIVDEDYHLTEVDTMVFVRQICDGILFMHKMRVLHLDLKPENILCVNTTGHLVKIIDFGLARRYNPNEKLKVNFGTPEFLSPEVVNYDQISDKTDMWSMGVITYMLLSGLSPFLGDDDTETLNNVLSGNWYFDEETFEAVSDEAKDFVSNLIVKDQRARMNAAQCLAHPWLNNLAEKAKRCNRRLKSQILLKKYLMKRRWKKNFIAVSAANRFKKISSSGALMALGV
UniProt P49753, sequence (whole entry, looked up): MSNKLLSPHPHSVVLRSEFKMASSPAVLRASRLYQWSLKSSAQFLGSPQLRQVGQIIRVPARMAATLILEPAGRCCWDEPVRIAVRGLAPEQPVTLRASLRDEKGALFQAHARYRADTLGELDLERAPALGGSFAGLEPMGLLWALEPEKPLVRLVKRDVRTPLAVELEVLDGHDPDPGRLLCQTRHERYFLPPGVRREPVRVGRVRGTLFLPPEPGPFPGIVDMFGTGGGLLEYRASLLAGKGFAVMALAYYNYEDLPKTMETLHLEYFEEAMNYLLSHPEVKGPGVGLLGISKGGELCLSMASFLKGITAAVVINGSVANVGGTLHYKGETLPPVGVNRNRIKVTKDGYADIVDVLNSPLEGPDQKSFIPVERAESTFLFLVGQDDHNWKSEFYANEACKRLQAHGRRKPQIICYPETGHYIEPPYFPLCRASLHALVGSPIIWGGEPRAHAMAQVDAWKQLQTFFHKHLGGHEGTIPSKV
UniProt Q15393, sequence (whole entry, looked up): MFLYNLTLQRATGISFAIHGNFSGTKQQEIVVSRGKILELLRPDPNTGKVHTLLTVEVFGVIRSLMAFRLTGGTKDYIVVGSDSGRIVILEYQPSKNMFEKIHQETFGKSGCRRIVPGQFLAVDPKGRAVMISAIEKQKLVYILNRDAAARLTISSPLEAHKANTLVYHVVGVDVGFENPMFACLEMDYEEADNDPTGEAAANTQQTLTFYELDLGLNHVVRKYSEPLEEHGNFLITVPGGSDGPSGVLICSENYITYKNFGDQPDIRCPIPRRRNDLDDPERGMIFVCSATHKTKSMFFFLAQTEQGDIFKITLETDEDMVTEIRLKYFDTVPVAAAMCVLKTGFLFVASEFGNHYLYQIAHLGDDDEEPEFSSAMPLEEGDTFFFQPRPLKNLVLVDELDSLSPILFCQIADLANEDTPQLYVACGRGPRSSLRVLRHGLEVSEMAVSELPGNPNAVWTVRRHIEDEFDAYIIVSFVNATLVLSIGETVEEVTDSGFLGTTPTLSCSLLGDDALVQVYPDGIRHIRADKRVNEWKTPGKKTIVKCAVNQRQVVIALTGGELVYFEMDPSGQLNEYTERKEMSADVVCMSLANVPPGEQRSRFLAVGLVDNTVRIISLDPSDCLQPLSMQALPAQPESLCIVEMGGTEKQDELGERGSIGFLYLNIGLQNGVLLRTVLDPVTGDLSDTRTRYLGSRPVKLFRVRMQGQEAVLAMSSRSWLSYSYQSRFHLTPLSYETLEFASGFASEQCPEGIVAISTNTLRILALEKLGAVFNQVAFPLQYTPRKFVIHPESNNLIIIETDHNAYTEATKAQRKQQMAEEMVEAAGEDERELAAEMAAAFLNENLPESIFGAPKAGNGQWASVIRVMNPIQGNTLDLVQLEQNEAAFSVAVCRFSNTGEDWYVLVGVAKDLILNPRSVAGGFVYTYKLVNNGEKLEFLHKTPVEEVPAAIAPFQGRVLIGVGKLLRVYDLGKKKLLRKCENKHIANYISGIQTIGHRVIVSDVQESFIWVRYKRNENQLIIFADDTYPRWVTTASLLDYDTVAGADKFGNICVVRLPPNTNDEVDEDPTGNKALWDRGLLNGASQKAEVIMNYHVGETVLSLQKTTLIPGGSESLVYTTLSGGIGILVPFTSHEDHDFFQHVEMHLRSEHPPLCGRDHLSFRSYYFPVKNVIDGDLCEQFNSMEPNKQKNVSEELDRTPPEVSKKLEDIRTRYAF
UniProt Q8IW41, sequence (whole entry, looked up): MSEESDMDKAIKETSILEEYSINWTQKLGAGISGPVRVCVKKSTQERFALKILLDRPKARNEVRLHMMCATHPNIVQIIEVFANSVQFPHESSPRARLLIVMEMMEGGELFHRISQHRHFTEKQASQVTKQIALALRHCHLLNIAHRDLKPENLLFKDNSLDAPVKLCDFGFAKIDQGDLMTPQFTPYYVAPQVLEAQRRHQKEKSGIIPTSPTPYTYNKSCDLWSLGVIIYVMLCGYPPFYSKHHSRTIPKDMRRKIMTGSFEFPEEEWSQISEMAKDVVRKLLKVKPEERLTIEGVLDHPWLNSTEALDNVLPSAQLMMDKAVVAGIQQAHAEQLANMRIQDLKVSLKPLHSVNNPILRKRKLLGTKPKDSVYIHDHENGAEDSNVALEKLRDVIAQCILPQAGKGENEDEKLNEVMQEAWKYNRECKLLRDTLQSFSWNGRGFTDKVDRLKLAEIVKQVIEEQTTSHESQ
UniProt P0DMS8, sequence (whole entry, looked up): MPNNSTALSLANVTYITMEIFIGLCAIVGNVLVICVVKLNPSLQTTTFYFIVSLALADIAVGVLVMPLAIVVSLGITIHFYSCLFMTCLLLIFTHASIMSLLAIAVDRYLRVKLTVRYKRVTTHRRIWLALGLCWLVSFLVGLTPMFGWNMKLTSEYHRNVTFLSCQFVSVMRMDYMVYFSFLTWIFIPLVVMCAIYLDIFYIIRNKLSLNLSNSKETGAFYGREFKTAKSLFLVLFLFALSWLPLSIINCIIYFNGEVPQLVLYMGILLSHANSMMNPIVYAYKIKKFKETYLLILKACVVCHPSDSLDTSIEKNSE
UniProt Q9BY21, sequence (whole entry, looked up): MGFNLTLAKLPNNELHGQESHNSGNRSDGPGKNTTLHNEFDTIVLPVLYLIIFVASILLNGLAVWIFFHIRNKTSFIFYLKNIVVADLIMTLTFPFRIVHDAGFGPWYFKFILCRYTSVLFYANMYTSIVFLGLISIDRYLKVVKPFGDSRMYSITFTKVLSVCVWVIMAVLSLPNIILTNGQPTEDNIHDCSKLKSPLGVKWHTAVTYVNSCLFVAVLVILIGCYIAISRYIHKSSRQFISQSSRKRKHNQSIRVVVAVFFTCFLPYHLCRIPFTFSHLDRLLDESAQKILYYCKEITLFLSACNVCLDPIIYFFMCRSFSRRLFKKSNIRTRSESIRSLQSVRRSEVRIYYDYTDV
UniProt Q96BR1, sequence (whole entry, looked up): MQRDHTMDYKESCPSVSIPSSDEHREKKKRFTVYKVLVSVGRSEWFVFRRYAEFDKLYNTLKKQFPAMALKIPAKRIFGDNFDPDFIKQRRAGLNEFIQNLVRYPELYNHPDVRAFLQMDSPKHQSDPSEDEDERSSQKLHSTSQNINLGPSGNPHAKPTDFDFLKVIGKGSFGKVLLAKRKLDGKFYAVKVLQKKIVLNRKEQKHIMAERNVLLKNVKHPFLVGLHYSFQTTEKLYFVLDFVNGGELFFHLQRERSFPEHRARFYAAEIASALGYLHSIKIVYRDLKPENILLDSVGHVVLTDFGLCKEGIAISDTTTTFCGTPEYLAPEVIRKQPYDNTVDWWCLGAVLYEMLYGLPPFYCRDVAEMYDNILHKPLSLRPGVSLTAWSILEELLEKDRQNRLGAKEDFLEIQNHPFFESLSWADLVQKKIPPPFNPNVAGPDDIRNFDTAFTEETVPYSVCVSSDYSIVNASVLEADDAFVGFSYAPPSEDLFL

SMILES = COc1ccc2nc3cc(Cl)ccc3c(Nc3cc(CN4CCCC4)c(O)c(CN4CCCC4)c3)c2n1; target or system = kasA; test = thermal stabilization, nanoDSF; conditions = 100 µM; endpoint = ΔTm; result = -0.04 °C
SMILES = O=C(c1ccc(Cl)cc1)N1CCN2C(=O)N(OC(=O)N3CCOc4ccccc43)C(=O)C2C1 (stereo not drawn); target or system = Acyl-coenzyme A thioesterase 2, mitochondrial (ACOT2, Homo sapiens, UniProt P49753); test = enzyme activity, inhibitor, MS-based ABPP; system = SW-620 conditioned medium; conditions = 10 µM, 1 h, 37 °C; scale = reference: compound over DMSO, lower = stronger inhibition; endpoint = median ratio; result = 1.11
SMILES = CN1CCN(c2cc(-c3ccncc3)c(-c3ccc4ccccc4c3)nn2)CC1; target or system = Adenosine receptor A3 (ADORA3, Homo sapiens, UniProt P0DMS8); test = agonist, FLIPR; conditions = 12.5 µM; endpoint = activation; result = 0.1%
SMILES = CCn1ncc2ccc(NS(=O)(=O)c3cccc(C(=O)O)c3)cc21; target or system = kasA; test = thermal stabilization, nanoDSF; conditions = 100 µM; endpoint = ΔTm; result = -0.18 °C
SMILES = C[C@H]1CN(c2n[nH]c3nc(N[C@H]4CC[C@H](NS(=O)(=O)CCC(F)(F)F)CC4)ncc23)CCO1; target or system = Splicing factor 3B subunit 3 (Homo sapiens, UniProt Q15393); test = Kinobeads competition, item: SF3B3; conditions = 0.16 µM, unit not given; scale = reference: vehicle; endpoint = remaining binding; result = 1.13
SMILES = CC[C@H](C)[C@H](NC(=O)CNC(=O)[C@@H](N)CCCCN)C(=O)N[C@@H](CC(C)C)C(=O)N[C@@H](CCCCN)C(=O)N[C@@H](CCCNC(=N)N)C(=O)N[C@@H](CCC(=O)O)C(=O)N[C@@H](CCCCN)C(=O)N[C@@H](CCCNC(=N)N)C(=O)N[C@@H](CC(C)C)C(=O)N[C@@H](CCCNC(=N)N)C(=O)N[C@@H](CCCNC(=N)N)C(=O)N[C@@H](CCCCN)C(=O)N[C@@H](CC(N)=O)C(=O)N[C@H](C(=O)N[C@@H](Cc1c[nH]cn1)C(=O)N[C@@H](Cc1c[nH]c2ccccc12)C(=O)N1CCC[C@H]1C(=O)N[C@@H](CCC(=O)O)C(=O)N[C@@H](CCC(=O)O)C(=O)NCC(=O)N[C@@H](CCCCN)C(=O)N[C@@H](CC(C)C)C(=O)N[C@@H](CCCNC(=N)N)C(=O)N[C@@H](CCC(=O)O)C(=O)N[C@@H](Cc1ccccc1)C(=O)N[C@@H](Cc1ccccc1)C(=O)N[C@@H](Cc1ccccc1)C(=O)N[C@@H](Cc1ccccc1)C(=O)N[C@@H](CCC(=O)O)C(=O)N[C@@H](CC(C)C)C(=O)N[C@@H](CC(=O)O)C(=O)N[C@@H](CCC(=O)O)C(=O)N[C@@H](C)C(=O)N[C@@H](CCC(=O)O)C(=O)N[C@@H](CCCNC(=N)N)C(=O)N[C@H](C(=O)N[C@@H](CC(N)=O)C(=O)N[C@H](C(=O)O)C(C)C)C(C)C)C(C)C; target or system = HeLa and HEK-293T cells; test = phosphatase bead binding, competitive inhibitor, PIB pulldown LC-MS/MS, item: KNL1; conditions = concentration not given; scale = reference: untreated control; endpoint = log2 fold change; result = -7.97
SMILES = COCCn1ncc2ccc(NS(=O)(=O)c3ccc4c(c3)CCC4)cc21; target or system = kasA; test = thermal stabilization, nanoDSF; conditions = 100 µM; endpoint = ΔTm; result = 0.15 °C
SMILES = Oc1ccc2c3c1O[C@H]1[C@@H](O)CC[C@@]4(O)[C@@H](C2)N(CC2CCC2)CC[C@]314; target or system = G-protein coupled receptor 87 (GPR87, Homo sapiens, UniProt Q9BY21); test = β-arrestin recruitment, TANGO luminescence, item: GPR87; conditions = concentration not given; scale = reference: basal luminescence; endpoint = log2 fold change; result = -0.115
SMILES = O=C(Nc1cccnn1)N1CCC(=Cc2cccc(Oc3ccc(C(F)(F)F)cn3)c2)CC1; target or system = MAP kinase-activated protein kinase 5 (MAPKAPK5, Homo sapiens, UniProt Q8IW41); test = kinase activity, inhibitor; conditions = 10 µM, added: PRAK peptide substrate; endpoint = inhibition; result = -12%
SMILES = COc1ccc(N2C(=O)N(c3c(C)cccc3Cl)Cc3cnc(Nc4ccc(C5CCN(C)CC5)cc4OC)nc32)nc1; target or system = Serine/threonine-protein kinase Sgk3 (SGK3, Homo sapiens, UniProt Q96BR1); test = kinase activity; conditions = 0.5 µM; endpoint = inhibition; result = 6%
SMILES = O=C(Nc1cnccc1Cl)N1CCN(Cc2ccc3c(c2)OC(F)(F)O3)CC1; target or system = Leukotriene B4 receptor 1 (LTB4R, Homo sapiens, UniProt Q15722); test = radioligand binding; conditions = 50 µM, added: [3H]LTB4; endpoint = inhibition of binding; result = 0%
SMILES = [2H]c1c([2H])c([C@]2([2H])CCCN2C(=O)C(C)(C)Oc2ccc3cn[nH]c3c2)c([2H])c([2H])c1C([2H])([2H])[2H]; target or system = Myosin light chain kinase 2, skeletal/cardiac muscle (MYLK2, Homo sapiens, UniProt Q9H1R3); test = KINOMEscan; conditions = 1 µM; scale = reference: DMSO control; endpoint = remaining binding; result = 82%

A few entries again:
SMILES = CC[C@H](C)[C@H](NC(=O)CNC(=O)[C@@H](N)CCCCN)C(=O)N[C@@H](CC(C)C)C(=O)N[C@@H](CCCCN)C(=O)N[C@@H](CCCNC(=N)N)C(=O)N[C@@H](CCC(=O)O)C(=O)N[C@@H](CCCCN)C(=O)N[C@@H](CCCNC(=N)N)C(=O)N[C@@H](CC(C)C)C(=O)N[C@@H](CCCNC(=N)N)C(=O)N[C@@H](CCCNC(=N)N)C(=O)N[C@@H](CCCCN)C(=O)N[C@@H](CC(N)=O)C(=O)N[C@H](C(=O)N[C@@H](Cc1c[nH]cn1)C(=O)N[C@@H](Cc1c[nH]c2ccccc12)C(=O)N1CCC[C@H]1C(=O)N[C@@H](CCC(=O)O)C(=O)N[C@@H](CCC(=O)O)C(=O)NCC(=O)N[C@@H](CCCCN)C(=O)N[C@@H](CC(C)C)C(=O)N[C@@H](CCCNC(=N)N)C(=O)N[C@@H](CCC(=O)O)C(=O)N[C@@H](Cc1ccccc1)C(=O)N[C@@H](Cc1ccccc1)C(=O)N[C@@H](Cc1ccccc1)C(=O)N[C@@H](Cc1ccccc1)C(=O)N[C@@H](CCC(=O)O)C(=O)N[C@@H](CC(C)C)C(=O)N[C@@H](CC(=O)O)C(=O)N[C@@H](CCC(=O)O)C(=O)N[C@@H](C)C(=O)N[C@@H](CCC(=O)O)C(=O)N[C@@H](CCCNC(=N)N)C(=O)N[C@H](C(=O)N[C@@H](CC(N)=O)C(=O)N[C@H](C(=O)O)C(C)C)C(C)C)C(C)C; target or system = HeLa and HEK-293T cells; test = phosphatase bead binding, competitive inhibitor, PIB pulldown LC-MS/MS, item: KNL1; conditions = concentration not given; scale = reference: untreated control; endpoint = log2 fold change; result = -7.97
SMILES = COCCn1ncc2ccc(NS(=O)(=O)c3ccc4c(c3)CCC4)cc21; target or system = kasA; test = thermal stabilization, nanoDSF; conditions = 100 µM; endpoint = ΔTm; result = 0.15 °C
